Results of several laboratories.
Compare with care: the assays were run in different laboratories.

SMILES	test	system	setting	Tmax [h]
CCNC(=O)c1noc(-c2cc(C(C)C)c(O)cc2O)c1NC(=O)CCN1CCOCC1	–	CD1 nude mouse A-431 xenograft, tumour	intraperitoneal, 80 mg/kg	≤ 2
Cc1nc(NC(=O)N2CCC[C@H]2C(N)=O)sc1-c1csc(C(C)(C)C)n1	–	CD-1 mouse, plasma	intraperitoneal, 10 mg/kg	0.5
C[C@@H](COc1ccc(F)cc1)C(=O)n1nc(N)c2ccc(CO)cc21	–	C57BL/6 mouse, plasma	ip, 10 mg/kg	0.25
COCc1nc(C(F)(F)F)[nH]c1-c1cc(C(=O)N2CC(c3ccc(C#N)cc3)C2)c(C)cc1C	–	mouse	oral, 10 mg/kg	1
CC(C)c1cnc(-c2cc(Cl)ccc2F)cc1Nc1ccncc1C(=O)NC(CO)CO	–	female BALB/c mouse, 4T1 tumour, plasma	oral, 100 mg/kg twice daily, after first dose	1 to 3
Cc1ccc(NC(=O)N2CCCN3CCC(c4ccc(C#CC5(O)CCCCC5)cc4)C3C2)cc1 (centres unmarked)	–	CD-1 mouse, brain	oral, 10 mg/kg, single dose	1
O=C(Nc1nccs1)C(c1cc(F)ccc1O)N1Cc2ccccc2C1=O (centres unmarked)	–	mouse FVB/NRj, female, plasma	oral, 20 mg/kg	~0.0833
NC(=O)c1ccc(C(=O)NOCc2ccc(Sc3cccc(Cl)c3)c(C(F)(F)F)c2)cc1	–	male ICR mouse, plasma	intravenous, 10 mg/kg	0.08
CC(C)c1cnn2c(NCc3ccccc3F)cc(N[C@H]3CC[C@@H](N)CC3)nc12	–	female BALB/c mouse, plasma	oral, 10 mg/kg	2
CN(CCCNC(=O)c1cccc(C(=O)O)c1)CCCNC(=O)c1cc(NC(=O)c2cc(NC(=O)c3cc(NC(=O)c4cc(NC(=O)[C@H](N)CCNC(=O)c5cc(NC(=O)c6cc(NC(=O)c7nc(NC(=O)c8nccn8C)cn7C)cn6C)cn5C)cn4C)cn3C)cn2C)cn1C	–	C57BL/6 mouse, plasma	intraperitoneal, 120 nmol/animal	1
N#CC1(c2ccc3c(N)ncnn23)OC(COP(=O)(O)O)C(O)C1O (centres unmarked)	LC-MS/MS	CD-1 mouse male, liver	oral, 100 mg/kg of remdesivir	1
COc1ccc(NC(=O)N2CCCN3CCC(c4ccc(C#Cc5ccccc5)cc4)C3C2)cc1 (centres unmarked)	–	CD-1 mouse, brain	oral, 10 mg/kg, single dose	8
Clc1ccc2ccc3[n+](c2c1)[Ir-3]12([c]4ccccc4-3)([c]3ccccc3-c3ccc4ccc(Cl)cc4[n+]31)[n+]1ccccc1-c1cccc[n+]12.F[P-](F)(F)(F)(F)F	ICP-MS, measured: iridium	mouse, serum	i.p., 2.0 mg/kg	4
CCN(CC)c1ccc2nc3c4ccccc4/c(=N/c4ccncc4)cc-3oc2c1	LC-MS	NMRI mouse, plasma	oral, 20 mg/kg, noninfected and infected mice	1
N=C(N)NCCC[C@@H]1NC(=O)[C@H](Cc2c[nH]c3ccccc23)NC(=O)[C@@H](CC2CCCCC2)NC(=O)[C@@H]2CCCN2C(=O)[C@@H](NC(=O)CCc2ccccc2)CCCNC1=O	–	C57BL/6J mouse, plasma	subcutaneous, 1 mg/kg, single dose	0.466
CC(C)[C@H](CO)Nc1nc(Nc2ccc(C(=O)NCCNS(=O)(=O)c3cccc4c(N(C)C)cccc34)c(Cl)c2)c2ncn(C(C)C)c2n1	–	mouse, prostate	intraperitoneal, 20 mg/kg	4
[11CH3]N1CCN(CCCOc2ccc(=O)n(-c3ccc(Cl)c(Cl)c3)n2)CC1	radiotracer	mouse BALB/c male, brain, heart, lung, kidney	intravenous	0.0833

Repeated from above:
SMILES	test	system	setting	Tmax [h]
CCNC(=O)c1noc(-c2cc(C(C)C)c(O)cc2O)c1NC(=O)CCN1CCOCC1	–	CD1 nude mouse A-431 xenograft, tumour	intraperitoneal, 80 mg/kg	≤ 2
Cc1nc(NC(=O)N2CCC[C@H]2C(N)=O)sc1-c1csc(C(C)(C)C)n1	–	CD-1 mouse, plasma	intraperitoneal, 10 mg/kg	0.5
C[C@@H](COc1ccc(F)cc1)C(=O)n1nc(N)c2ccc(CO)cc21	–	C57BL/6 mouse, plasma	ip, 10 mg/kg	0.25
